{"data": "Measurements collected from several papers", "note": "Every numbered part comes from another study and shows a few of its results, in no order. Positions count from the first letter of the parent shown."}
{"data": "Study 1", "target": "Sal-like protein 4, full length isoform B (SALL4, Homo sapiens, UniProt Q9UJQ4-2, residues 1-616)", "method": "universal PBM", "molecule type": "double-stranded DNA, one strand shown", "medium": "in vitro", "tested at": "not given", "setting": "8-mer, flanks averaged, mean of replicates", "reading": "higher = stronger binding"}
{"Strand": "AGTGGCAG", "E-score": -0.196}
{"Strand": "ACAGGCCC", "E-score": -0.337}
{"Strand": "CCAACGAC", "E-score": -0.114}
{"Strand": "AAGATCCA", "E-score": -0.0537}
{"Strand": "GGGCTTCA", "E-score": -0.215}
{"Strand": "CGAAAGTA", "E-score": 0.058}
{"Strand": "AAACGGAT", "E-score": 0.0623}
{"Strand": "CACTTTAG", "E-score": -0.0515}
{"data": "Study 2", "target": "RING finger protein unkempt homolog, zinc fingers 1-6, GST-SBP tag (UNK, Homo sapiens, UniProt Q9C0B0, residues 30-357)", "method": "RNA Bind-n-Seq", "molecule type": "RNA", "medium": "in vitro", "tested at": "not given", "setting": "RNA with constant flanks, human and mouse sites, ends assumed", "relative to": "input RNA pool", "reading": "higher = stronger binding", "shared flanks, not repeated": "GGGAGUUCUACAGUCCGACGAUC … CAACAGAGGAUUGAGCAUCA", "chain of UniProt Q9C0B0 (30-357, looked up)": "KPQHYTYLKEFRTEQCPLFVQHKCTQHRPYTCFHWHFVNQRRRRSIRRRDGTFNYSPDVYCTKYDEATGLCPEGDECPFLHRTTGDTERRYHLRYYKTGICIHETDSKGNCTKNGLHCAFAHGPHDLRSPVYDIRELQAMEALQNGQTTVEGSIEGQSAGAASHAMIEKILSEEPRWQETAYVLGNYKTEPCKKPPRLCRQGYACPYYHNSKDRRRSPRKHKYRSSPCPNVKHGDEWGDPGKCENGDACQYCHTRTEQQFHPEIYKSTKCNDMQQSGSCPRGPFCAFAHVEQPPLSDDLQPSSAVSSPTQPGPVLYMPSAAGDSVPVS"}
{"Strand": "UCAGCUUCGGUGGACUGCUCCUCUGAUUUCUAAGCCUCCAAUUGGGCCUCUUUGAUACAAAUAGAAGUCAGGUAUGUGACUUAAAUACUAAAAAUAUUAAUAUUCCCGUUUGAAUUCGAU", "bound/input enrichment": "1.22 ratio"}
{"Strand": "GUACUGCUGGUCCUGUACCAGAAACAUUUUCUUUUAUUGUUACUUGCUUUUUAAACUUUGUUUAGCCACUUAAAAUCUGCUUAUGGCACAAUUUGCCUCAAAAUCCAUUCCAAGUUGUAU", "bound/input enrichment": "1.42 ratio"}
{"Strand": "AUUCAGCACUCCCAACCAGACCCUGGGAUGGGUGAGAGAAAAGCGGGGGUGUCUCUCCCCUCCCCACUCUGCCCAGCUCUCAUCACUGUCAGACCCACCAGAGCUGAGGGCGGAGGGAUU", "bound/input enrichment": "0.331 ratio"}
{"Strand": "ACAAGAAUGCAGAAGGCUGGAAUUCCUUGUCCAACAGUUGUACUGCUUAAGAAGCACAUUUUAGUUAUGUCUUUCAUUGGCCAUGAUCAAGUUCCAGCCCCUAAAUUAAAAGAAGUAAAG", "bound/input enrichment": "0.355 ratio"}
{"Strand": "CUGUCCGAACGAUCGGGAUAGGAGCGGUCCCUGCGCUUGCUGCUGGGAAGUGGUACAAUCAUGUUUGAAAUUAAGAAGAUCUGUUGCAUCGGUGCAGGCUAUGUUGGAGGACCCACAUGU", "bound/input enrichment": "0.409 ratio"}
{"Strand": "AGCAAAAAUCAAAUUAAAGUAGAUCUUGUAGAUGAGAAUUUUACAGAAUUAAGAGGAGAAAUAGCAGGACCUCCAGACACACCAUAUGAAGGAGGAAGAUACCAACUAGAGAUAAAAAUA", "bound/input enrichment": "18.5 ratio"}
{"Strand": "GGACUAGAACACGUUACUGUUGAUGACUUGGUGGCUGAAAUCACUCCAAAAGGCAGAGCCCUGGUACCUGACAGUGUAAAGAAGGAGCUCCUACAAAGAAUAAGAACAUUCCUUGCUCAG", "bound/input enrichment": "0.143 ratio"}
{"Strand": "UAUUUAAUCAAAUAAGAUACAUGAUAUUGAAAGAAUAAAGCAGCAUUUUUAGUUUUUACUACCUUAGGCUUUAUUGCUUUGAAAACAACAUUGGCCUUUUGUAUCUCACAAUUCUGGUCU", "bound/input enrichment": "1.18 ratio"}
{"data": "Study 3", "target": "UBE2D3 UBC core domain (UniProt P61077)", "method": "yeast two-hybrid", "medium": "yeast", "setting": "mostly zero background", "relative to": "not given", "reading": "higher = stronger interaction", "B1": "TRIM52 RING domain (UniProt Q96A61); chain PMQTLQEEAVCAICLDYFKDPVSISCGHNFCRGCVTQLWSKEDEEDQNEEEDEWEEEEDEEAV", "B2": "PHF7 RING domain (UniProt Q9BWX1); chain IQHGHVGEESCILCCEDLSQQSVENIQSPCCSQAIYHRKCIQKYAHTSAKHFFKCPQCNNRKEFPQEML", "B3": "RNF149 RING domain (UniProt Q8NC42); chain EKGIDVDAENCAVCIENFKVKDIIRILPCKHIFHRICIDPWLLDHRTCPMCKLDVIKALGYW", "B4": "TRIM38 RING domain (UniProt O00635); chain STKKMMEEATCSICLSLMTNPVSINCGHSYCHLCITDFFKNPSQKQLRQETFCCPQCRAPFHMDSLRP", "B5": "RNF150 RING domain (UniProt Q9ULK6); chain DKETESDFDNCAVCIEGYKPNDVVRILPCRHLFHKSCVDPWLLDHRTCPMCKMNILKALGIP", "B6": "TRIM15 RING domain (UniProt Q9C019); chain SLKVVHELPACTLCAGPLEDAVTIPCGHTFCRLCLPALSQMGAQSSGKILLCPLCQEEEQAETPMA", "B7": "ANKIB1 RING domain (UniProt Q9P2G1); chain LSPGDLDTSLCDICMCSISVFEDPVDMPCGHDFCRGCWESFLNLKIQEGEAHNIFCPAYDCFQLVPVDIIE", "Residues (chain)": "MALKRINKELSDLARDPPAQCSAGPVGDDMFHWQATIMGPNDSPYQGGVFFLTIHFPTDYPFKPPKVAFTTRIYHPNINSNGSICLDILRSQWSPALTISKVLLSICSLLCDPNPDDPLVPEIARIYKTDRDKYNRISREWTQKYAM"}
{"Molecule": "B1 (TRIM52 RING domain)", "lacZ reporter activity": 0}
{"Molecule": "B2 (PHF7 RING domain)", "lacZ reporter activity": 0}
{"Molecule": "KRQCSDVDDICSICQAEFQKPILLICQHIFCEECMTLWFNREKTCPLCRTVISDHINKW (RNFT1 RING domain (UniProt Q5M7Z0))", "lacZ reporter activity": 0}
{"Molecule": "B3 (RNF149 RING domain)", "lacZ reporter activity": 0}
{"Molecule": "B4 (TRIM38 RING domain)", "lacZ reporter activity": 0}
{"Molecule": "B5 (RNF150 RING domain)", "lacZ reporter activity": 15900}
{"Molecule": "FLKKLEQSFMCVCCQELVYQPVTTECFHNVCKDCLQRSFKAQVFSCPACRHDLGQNYIMI (UHRF2 RING domain (UniProt Q96PU4))", "lacZ reporter activity": 9300}
{"Molecule": "B6 (TRIM15 RING domain)", "lacZ reporter activity": 0}
{"Molecule": "B7 (ANKIB1 RING domain)", "lacZ reporter activity": 0}
{"data": "Study 4", "target": "CCNE1, cyclin fold, Cln2 fusion (human)", "method": "yeast growth competition, sequencing", "medium": "yeast", "setting": "strong parent motif", "relative to": "not given", "reading": "higher = stronger binding", "starting sequence": "viral docking peptide; KGVKRKLFAEDSS; partner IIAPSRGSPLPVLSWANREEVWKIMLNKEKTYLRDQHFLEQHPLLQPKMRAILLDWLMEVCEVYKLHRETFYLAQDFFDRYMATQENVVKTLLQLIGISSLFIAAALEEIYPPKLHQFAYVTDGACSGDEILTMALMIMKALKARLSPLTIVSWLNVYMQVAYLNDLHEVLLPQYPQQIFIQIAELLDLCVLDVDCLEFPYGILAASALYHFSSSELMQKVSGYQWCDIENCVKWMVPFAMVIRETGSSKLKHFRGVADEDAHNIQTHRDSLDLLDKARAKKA"}
{"Substitution": "KGVKRKLFDEDSS [A9D]", "normalised enrichment score": 6.67}
{"Substitution": "KGVKRKLFAEDRS [S12R]", "normalised enrichment score": 7.52}
{"Substitution": "KGVKTKLFAEDSS [R5T]", "normalised enrichment score": 0.947}
{"Substitution": "KGVKRKLFAEDSA [S13A]", "normalised enrichment score": 8.43}
{"note": "Excerpt of the above (study 3):"}
{"Molecule": "B5 (RNF150 RING domain)", "lacZ reporter activity": 15900}
{"Molecule": "FLKKLEQSFMCVCCQELVYQPVTTECFHNVCKDCLQRSFKAQVFSCPACRHDLGQNYIMI (UHRF2 RING domain (UniProt Q96PU4))", "lacZ reporter activity": 9300}
{"Molecule": "B6 (TRIM15 RING domain)", "lacZ reporter activity": 0}
